Measurements gathered from unrelated publications.
Compare with care: the assays were run in different laboratories.

| SMILES | assay | test system | conditions | half-life |
| --- | --- | --- | --- | --- |
| CN(C)CCN(Cc1ccccc1)C(=O)c1cc(-c2ccc(F)cc2)n2nc(C(C)(C)C)cc2n1 |  | C57BL/6 x SJL mouse, wild type, brain | subcutaneous, 35 mg/kg | ~12.4 h |
| CN(CC(=O)N(Cc1ccc(C2CCCCC2)cc1)c1ccc(C(=O)O)cc1)S(=O)(=O)c1c(F)c(F)c(F)c(F)c1F |  | CD-1 mouse, plasma | intraperitoneal, 20 mg/kg | 0.167 to 0.25 h |
| CCCC[C@H](NC(=O)[C@H](CC(C)C)N(C)C(=O)CNC(=O)[C@@H](NC(=O)[C@H](Cc1ccc(O)cc1)NC(=O)[C@H](CCCCNC(=O)COCCOCCNC(=O)COCCOCCNC(=O)CC[C@H](NC(=O)CCCCCCCCCCCCCCCCC(=O)O)C(=O)O)NC(=O)[C@@H](N)CC(=O)O)C(C)C)C(N)=O | LC-MS | lean mouse, plasma | subcutaneous, 325 nmol/kg | 5.5 h |
| O=C[C@H](C[C@@H]1CCNC1=O)NC(=O)[C@H](Cc1cccc(F)c1)NC(=O)c1cc2ccccc2[nH]1 |  | mouse | intraperitoneal, 20 mg/kg | 5.21 h |
| CC[C@H](C)CCCCC(=O)N[C@@H](CCN)C(=O)N[C@H](C(=O)N[C@@H](CCN)C(=O)N[C@H]1CCNC(=O)[C@H]([C@@H](C)O)NC(=O)[C@H](CCN)NC(=O)[C@H](CCN)NC(=O)[C@H](CC(C)C)NC(=O)[C@@H](Cc2ccccc2)NC(=O)[C@H](CCN)NC1=O)[C@@H](C)O |  | C57BL/6 mouse, male, plasma | intravenous, 5 mg/kg | 1 h |
| Cc1ccc(NS(=O)(=O)c2c(C(=O)N3CCCCCC3)c(C)n(C)c2C)c(Cl)c1 |  | ICR mouse, male, plasma | intraperitoneal, dose not given | 0.828 h |
| CC(C)C[C@@H](/C=C/CC(=O)NC1CC(C)(C)N([O])C(C)(C)C1)NC(=O)OC(C)(C)C |  | C57BL/6NHsd mouse, female, lungs |  | 0.167 h |
| CC(C)(CCCC/C=C/CCCCCC(C)(C)C(=O)O)C(=O)O | allometric estimate from V/CL | mouse, plasma |  | 4.55 h |
| CCCCCCCC/C=C\CCCCCCCCOP(O)(O)=S.N |  | mouse, female, nonirradiated | sc, dose not given | 1.38 h |
| CCCC[C@@H]1NC(=O)[C@H](Cc2ccc(O)cc2)NC(=O)[C@@H]2CCCN2C(=O)[C@H](CC(=O)O)NC(=O)[C@H](C)NC(=O)[C@H](Cc2ccccc2)NC(=O)[C@@H]2CSCCC(=O)N3CN(CN(C3)C(=O)CCSC[C@@H](C(=O)N[C@@H](C)C(N)=O)NC1=O)C(=O)CCSC[C@H](NC(C)=O)C(=O)N[C@@H](CC(C)(C)C)C(=O)N1CCC[C@H]1C(=O)N[C@@H](CCC(=O)O)C(=O)N[C@H](CCCCNC(=O)CCc1cn(CCOCCOCCOCCN(CCOCCOCCOCCC(=O)N[C@H]3CSCCC(=O)N4CN5CN(C4)C(=O)CCSC[C@H](NC(=O)[C@@H](CC(=O)O)NC(=O)[C@H](Cc4cccc6ccccc46)NC(=O)[C@@H]4CCCN4C3=O)C(=O)N[C@@H](CCSC)C(=O)N[C@@H](CCCCNC(=N)N)C(=O)N[C@@H](CC(=O)O)C(=O)N[C@@H](Cc3c[nH]c4ccccc34)C(=O)N[C@@H](CO)C(=O)N[C@@H]([C@@H](C)O)C(=O)N3CCC[C@H]3C(=O)N3C[C@H](O)C[C@H]3C(=O)N[C@@H](Cc3c[nH]c4ccccc34)C(=O)N[C@H](C(N)=O)CSCCC5=O)CCOCCOCCOCCn3cc(CCC(=O)NCCCC[C@H]4NC(=O)[C@H](CCC(=O)O)NC(=O)[C@@H]5CCCN5C(=O)[C@H](CC(C)(C)C)NC(=O)[C@@H](NC(C)=O)CSCCC(=O)N5CN6CN(C5)C(=O)CCSC[C@H](NC(=O)[C@H](Cc5ccc(O)cc5)NC(=O)[C@@H]5CCCN5C4=O)C(=O)N[C@@H](Cc4ccccc4)C(=O)N[C@@H](C)C(=O)N[C@@H](CC(=O)O)C(=O)N4CCC[C@H]4C(=O)N[C@@H](Cc4ccc(O)cc4)C(=O)N[C@@H](CCCC)C(=O)N[C@H](C(=O)N[C@@H](C)C(N)=O)CSCCC6=O)nn3)nn1)C(=O)N1CCC[C@H]1C(=O)N[C@@H](Cc1ccc(O)cc1)C(=O)N2 |  | CD-1 mouse, plasma | intraperitoneal | 2.3 h |
| COc1ccc2sc3c(c2c1)SCCNC3=O |  | mouse | intravenous, 25 mg/kg | 0.233 h |

For quick reference, copied from above:
| SMILES | assay | test system | conditions | half-life |
| --- | --- | --- | --- | --- |
| CCCC[C@H](NC(=O)[C@H](CC(C)C)N(C)C(=O)CNC(=O)[C@@H](NC(=O)[C@H](Cc1ccc(O)cc1)NC(=O)[C@H](CCCCNC(=O)COCCOCCNC(=O)COCCOCCNC(=O)CC[C@H](NC(=O)CCCCCCCCCCCCCCCCC(=O)O)C(=O)O)NC(=O)[C@@H](N)CC(=O)O)C(C)C)C(N)=O | LC-MS | lean mouse, plasma | subcutaneous, 325 nmol/kg | 5.5 h |
